Assay results from different studies.
Protocols differ between the studies behind these lines. ± gives the spread as reported.

O=C(C[Se]C(=O)c1ccco1)Nc1cccc(C(F)(F)F)c1 has a GI50 of 2.25 µM (NCI60 CNS cancer panel; five-dose screen).
For CSCC[C@H](NC(=O)[C@@H](NC(=O)[C@H](CCC(N)=O)NC(=O)[C@H](CO)NC(=O)[C@@H](N)C(C)C)[C@@H](C)O)C(=O)N[C@@H](CCCNC(=N)N)C(=O)N[C@@H](CCC(N)=O)C(=O)N[C@H](C(=O)N[C@@H](C)C(=O)N[C@H](C(=O)N1CCC[C@H]1C(=O)N[C@@H](CC(C)C)C(=O)N[C@@H](CC(C)C)C(=O)N[C@@H](Cc1c[nH]c2ccccc12)C(=O)N[C@@H](Cc1ccccc1)C(=O)N[C@@H](Cc1c[nH]c2ccccc12)C(=O)N[C@H](C(=O)NCC(=O)N[C@@H](CO)C(=O)N[C@@H](CC(C)C)C(=O)NCCOCCOCCOCCOCCOCCOCCOCCOCCOCCOCCOCCOCCC(=O)N[C@@H](CS)C(N)=O)[C@@H](C)O)C(C)C)[C@@H](C)O, the selectivity ratio was 31 ± 14 (H2009; phage binding; 10 min, 37 °C; relative to: control phage).
For Cc1cc(Oc2nc(N3CC[C@@H](c4ccncc4)C3)ncc2F)[nH]n1, the IC50 was 89.1 µM (JIMT-1; cell growth or viability).
The selectivity ratio of CC(C)[C@H](NC(=O)[C@H](CCCNC(=N)N)NC(=O)[C@@H]1CCCN1C(=O)[C@@H](NC(=O)[C@H](C)NC(=O)[C@H](Cc1ccc(O)cc1)NC(=O)[C@H](CCC(N)=O)NC(=O)[C@H](CCCCN)NC(=O)[C@H](CCCNC(=N)N)NC(=O)[C@@H]1CCCN1C(=O)[C@H](CCC(=O)O)NC(=O)[C@@H](NC(=O)[C@H](C)N)[C@@H](C)O)[C@@H](C)O)C(=O)N[C@@H](Cc1ccccc1)C(=O)N[C@@H](Cc1c[nH]c2ccccc12)C(=O)N[C@H](C(=O)N[C@@H](CC(=O)O)C(=O)N[C@@H](C)C(=O)N1CCC[C@H]1C(=O)NCC(=O)NCCOCCOCCOCCOCCOCCOCCOCCOCCOCCOCCOCCOCCC(=O)N[C@@H](CS)C(N)=O)[C@@H](C)O is reported as 2.3 ± 1.8 (HCC366 lung adenosquamous carcinoma; cell binding, phage binding, measured: output/input phage; 10 min, 37 °C; relative to: control phage).
For C#CCN1C(=O)C(CC#C)(C(=O)OCC)Oc2ccccc21 (stereo not drawn), the inhibition was 1.21% (HaCaT; cell growth or viability, CCK-8; 100 µM, 72 h).
Cc1ccc2oc(=O)cc(CN3CCCCC3)c2c1 — result for “calcium mobilisation signal”: 2.44 ± 1.39 (COS-7 (untransfected); 500 µM, unit not given; relative to: 3 µM ionomycin).
With CC(C)C12OC1C1OC13C1(C)CCC4=C(COC4=O)C1CC1OC13C2OC(=O)CCC(=O)OC1OC(CO)C(O)C(O)C1O (stereo not drawn) the IC50 was 4.83 µM (primary renal proximal tubule cells; cell viability, XTT; 47 h).
With CCOC(=O)C1(Cc2ccccc2)Oc2cc(F)ccc2N(Cc2ccccc2)C1=O (stereo not drawn) the inhibition was 0.12% (L02; cell growth or viability, CCK-8; 25 µM, 72 h).
For O=C1NC2(CC2)COc2ncc(F)cc2[C@H]2COCCN2c2ccn3ncc1c3n2, “organ-to-body weight ratio” read 0.591 ± 0.082% (Sprague-Dawley rat, female, brain; oral, 10 mg/kg/day, 4 weeks, end of treatment).
Under “mean fluorescence intensity”, O=C(O)c1ccc(-c2nc(-c3ccccc3Cl)c3sccn23)cc1 is recorded as 32600 a.u. (HEL; flow cytometry, measured: surface CD41; 0.01 mM; higher = more expression).
For O=C1C=CC(=O)c2ccccc21, the selectivity index was 1.74 (HuCC-A1; MTT; relative to: IC50 MRC-5 over IC50 HuCC-A1).
CC(C)(C)C(=O)OCOP(=O)(OCOC(=O)C(C)(C)C)C1CCCN(O)C1=O (stereo not drawn) has a log LC50 of over -4 log M (SF-295).

For quick reference, copied from above:
Under “mean fluorescence intensity”, O=C(O)c1ccc(-c2nc(-c3ccccc3Cl)c3sccn23)cc1 is recorded as 32600 a.u. (HEL; flow cytometry, measured: surface CD41; 0.01 mM; higher = more expression).
